Measured values from different studies.
Numbered parts are unrelated; each lists some results of a single study. Positions count from the first letter of the parent shown.

Set 1
Target: Transcription factor SOX-2, HMG box (Sox2, Mus musculus, UniProt P48432, residues 41-119)
Sequence of UniProt P48432 (41-119, looked up): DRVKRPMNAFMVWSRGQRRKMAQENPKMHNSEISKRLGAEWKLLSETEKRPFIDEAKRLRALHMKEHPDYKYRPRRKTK
Technique: Spec-seq
Form: double-stranded DNA, one strand shown
Matrix: in vitro
Tested at: not given
Notes: whole probe, mean of replicates
Relative to: not given
Reading: lower = stronger binding
Shared flanks, not repeated: GAGTCGTCTCGTCAGCAC … CCGTAGAGCACTCAGGTC
Oligonucleotide	relative binding energy [ln ratio]
AGCGGTT	0.85
CATAGAT	-0.853
CATAGAA	-1.32
CATGACC	0.317
CATCAGT	0.5
CGTCGTT	1.19
TGATGTT	0.335
TGCGGTT	1.04
TCCAGTT	0.553
ATTTGTT	-1.67

Set 2
Target: Ras GTPase-activating protein-binding protein 1, full length (G3BP1, Homo sapiens, UniProt Q13283)
Sequence of UniProt Q13283 (whole entry, looked up): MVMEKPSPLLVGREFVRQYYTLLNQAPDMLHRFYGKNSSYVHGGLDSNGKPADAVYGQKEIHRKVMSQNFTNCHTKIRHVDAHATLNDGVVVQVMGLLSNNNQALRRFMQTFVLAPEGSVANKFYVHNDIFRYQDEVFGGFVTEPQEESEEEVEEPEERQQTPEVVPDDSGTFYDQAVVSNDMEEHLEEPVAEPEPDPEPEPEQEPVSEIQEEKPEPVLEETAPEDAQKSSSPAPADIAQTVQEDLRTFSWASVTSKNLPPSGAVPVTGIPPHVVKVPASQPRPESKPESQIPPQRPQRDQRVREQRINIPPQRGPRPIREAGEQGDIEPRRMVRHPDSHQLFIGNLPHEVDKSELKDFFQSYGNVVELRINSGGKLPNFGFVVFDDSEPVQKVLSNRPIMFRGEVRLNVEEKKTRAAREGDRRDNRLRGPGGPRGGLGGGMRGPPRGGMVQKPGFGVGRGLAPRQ
Technique: RNA Bind-n-Seq
Form: RNA
Matrix: in vitro
Tested at: 200 nM
Notes: whole 134-nt RNA, ends assumed
With: 150 mM LiCl
Relative to: input library
Reading: higher = stronger binding
All molecules: 7-deaza-guanosine replaces G
Oligonucleotide	log2 enrichment
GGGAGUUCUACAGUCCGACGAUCUUGACUAUAUUGUGGAGUAUGACUAUGAUGCUGUACAUGAUGAUGAAUUAACUAUUCGAGUUGGAGAAAUCAUCAGGAAUGUGAAAAAGCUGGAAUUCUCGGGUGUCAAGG	-2.3
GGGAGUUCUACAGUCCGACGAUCAAGUCCUGUGCUACACAUCGUAUGUACCGAAUCGGGUUUGGGUUUUUGGGUUUGGGAAAGUAUUAUGUUACGCCGUUCGGAUCUGCACUUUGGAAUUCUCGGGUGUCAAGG	-0.756
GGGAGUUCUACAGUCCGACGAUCUCCUGUGCUACACAUCGUAUGUACCGAAUCGGUUUUUUGGUUUUUUGGGGUUUUUUGGGGAAAGUAUUAUGUUACGCCGUUCGGAUCUGCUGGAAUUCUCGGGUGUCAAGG	-0.38
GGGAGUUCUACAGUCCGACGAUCCCUGUGCUACACAUCGUAUGUACCGAAUCGGGAAAAAAAGGGUUUUUUUGGGUUUUUGGGAAAGUAUUAUGUUACGCCGUUCGGAUCUGCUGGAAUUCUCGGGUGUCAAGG	-2.65
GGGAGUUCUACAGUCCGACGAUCCUCAAGUCCUGUGCUACACAUCGUAUGUACCGAAUCGGGUGGGGUGGGGUGGGGAAAGUAUUAUGUUACGCCGUUCGGAUCUGCACUUCCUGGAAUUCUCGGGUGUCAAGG	-0.476
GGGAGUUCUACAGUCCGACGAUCUGUGCUACACAUCGUAUGUACCGAAUCGGGGUUUUUUUGGGUUUUUUUGGGGUUUUUUUGGGGAAAGUAUUAUGUUACGCCGUUCGGAUCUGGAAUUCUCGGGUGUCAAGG	1.94
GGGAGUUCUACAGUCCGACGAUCCAAGUCCUGUGCUACACAUCGUAUGUACCGAAUCGGGGCCGGGGCCGGGGCCGGGAAAGUAUUAUGUUACGCCGUUCGGAUCUGCACUUCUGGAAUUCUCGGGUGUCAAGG	-0.249
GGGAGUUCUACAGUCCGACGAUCUGGGAGGUGGAUUUUGUUUAUUUUUUUAGCUCAUUUCCAGGGGUGGGAAUUUUUUUUUAAUAUGUGUCAUGACUAAAGUUGUUUUUGAAAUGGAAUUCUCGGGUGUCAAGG	0.0388

Set 3
Target: ABI1, truncated, D143A, DHFR fusion (Arabidopsis thaliana)
Technique: DHFR PCA, deep sequencing
Matrix: yeast
Notes: methotrexate growth selection, single substitutions
With: (+)-ABA 2500 µM
Relative to: wild-type fitted maximum
Reading: higher = stronger binding
Starting sequence: PYL1, truncated, DHFR fusion (Arabidopsis thaliana); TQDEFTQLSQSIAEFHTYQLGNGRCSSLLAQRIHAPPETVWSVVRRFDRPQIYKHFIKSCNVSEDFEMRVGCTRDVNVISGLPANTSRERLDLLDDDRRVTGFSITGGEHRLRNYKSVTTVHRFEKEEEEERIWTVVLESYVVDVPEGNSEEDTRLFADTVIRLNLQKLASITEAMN
Substitution	relative binding score [%]
K54S	23.8
T119A	83.7
L93H	112
V121S	31.4
R132T	107

Other studies, line by line
Substance	target	test	system	setting	how to read	endpoint	value
PhoQ, residues 284 288 289 292 302 303 TTSMTC	PhoP, residues 12 14 15 18 19 NQGLL (Escherichia coli, UniProt P23836)	Sort-seq, item: YFP reporter	E. coli	PhoQ-PhoP variant library, with: 10 µM Mg2+	relative to: high Mg2+ state, higher = stronger signaling	fold induction	4.97

A few entries again (set 2):
Oligonucleotide	log2 enrichment
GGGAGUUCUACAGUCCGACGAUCAAGUCCUGUGCUACACAUCGUAUGUACCGAAUCGGGUUUGGGUUUUUGGGUUUGGGAAAGUAUUAUGUUACGCCGUUCGGAUCUGCACUUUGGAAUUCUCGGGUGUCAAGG	-0.756
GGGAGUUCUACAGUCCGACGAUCUCCUGUGCUACACAUCGUAUGUACCGAAUCGGUUUUUUGGUUUUUUGGGGUUUUUUGGGGAAAGUAUUAUGUUACGCCGUUCGGAUCUGCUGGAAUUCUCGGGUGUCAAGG	-0.38
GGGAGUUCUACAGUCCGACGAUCCCUGUGCUACACAUCGUAUGUACCGAAUCGGGAAAAAAAGGGUUUUUUUGGGUUUUUGGGAAAGUAUUAUGUUACGCCGUUCGGAUCUGCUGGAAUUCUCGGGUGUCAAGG	-2.65
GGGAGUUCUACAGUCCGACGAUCCUCAAGUCCUGUGCUACACAUCGUAUGUACCGAAUCGGGUGGGGUGGGGUGGGGAAAGUAUUAUGUUACGCCGUUCGGAUCUGCACUUCCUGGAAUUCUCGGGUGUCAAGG	-0.476
